Measured values of several laboratories.
Compare with care: the assays were run in different laboratories.
B1: UGT1A9 (Homo sapiens, UniProt O60656); chain GKLLVVPMDGSHWFTMRSVVEKLILRGHEVVVVMPEVSWQLGRSLNCTVKTYSTSYTLEDLDREFKAFAHAQWKAQVRSIYSLLMGSYNDIFDLFFSNCRSLFKDKKLVEYLKESSFDAVFLDPFDNCGLIVAKYFSLPSVVFARGILCHYLEEGAQCPAPLSYVPRILLGFSDAMTFKERVRNHIMHLEEHLLCHRFFKNALEIASEILQTPVTEYDLYSHTSIWLLRTDFVLDYPKPVMPNMIFIGGINCHQGKPLPMEFEAYINASGEHGIVVFSLGSMVSEIPEKKAMAIADALGKIPQTVLWRYTGTRPSNLANNTILVKWLPQNDLLGHPMTRAFITHAGSHGVYESICNGVPMVMMPLFGDQMDNAKRMETKGAGVTLNVLEMTSEDLENALKAVINDKSYKENIMRLSSLHKDRPVEPLDLAVFWVEFVMRHKGAPHLRPAAHDLTWYQYHSLDVIGFLLAVVLTVAFITFKCCAYGYRKCLGKKGRVKKAHKSKTH

Molecule	target or system	assay	test system	conditions	measurement	result
O=c1c(O)c(-c2ccc(O)c(OS(=O)(=O)O)c2)oc2cc(O)cc(O)c12	–	–	human, fasted baseline, cerebrospinal fluid	–	median concentration	18.1 nM
Cn1c(-c2ccc(C(N)=O)cc2F)nnc1C(C)(C)Oc1c(F)cc(Cl)cc1F	–	–	young non-Japanese humans, plasma	oral, 0.7 mg, day 1, single dose	median Cmax	0.0126 ng/mL
CCN(CC)CCNC(=O)c1c(C)[nH]c(/C=C2\C(=O)Nc3ccc(F)cc32)c1C	–	–	human, plasma	oral, 15 mg/m2, day 28	median trough plasma concentration	22.5 ng/mL
N#Cc1ccnc(N2C(=O)CC[C@H]2C(=O)N(c2cncc(F)c2)[C@H](C(=O)NC2CC(F)(F)C2)c2ccccc2Cl)c1	–	–	human patients	oral, 500 mg once daily, cycle 1 day 1, with: consolidation chemotherapy	median Tmax	3.93 h
C[C@H](N)C(=O)N1C[C@H](CCCB(O)O)[C@](N)(C(=O)O)C1	–	–	human patients, plasma	oral, 100 mg single dose, cycle 1 day 1	median tmax	4 h
B1 (UGT1A9)	COc1cc(OC)c2c(=O)c(O)c(-c3ccccc3)oc2c1	steady-state kinetics	–	pH 7.4, 37 °C	Km	0.13 µM
CO[C@H]1C[C@@H]2CC[C@@H](C)[C@@](O)(O2)C(=O)C(=O)N2CCCC[C@H]2C(=O)O[C@H]([C@H](C)C[C@@H]2CC[C@@H](OC(=O)C(C)(CO)CO)[C@H](OC)C2)CC(=O)[C@H](C)/C=C(\C)[C@@H](O)[C@@H](OC)C(=O)[C@H](C)C[C@H](C)/C=C/C=C/C=C/1C	–	–	human, whole blood	intravenous, 35 mg/m2, cycle 1, with: valproic acid	median Cmax	790 ng/mL
O=C(O)CCc1cccc(O)c1O	–	–	human, fasted baseline, cerebrospinal fluid	–	median concentration	15.8 nM
CC[C@@H]1C(=O)N(C)c2cnc(Nc3ccc(C(=O)N[C@H]4CC[C@H](N5CCN(CC6CC6)CC5)CC4)cc3OC)nc2N1C(C)C	–	–	human, plasma	intravenous infusion, 150 mg over 2 h, first infusion	median Tmax	1.03 h
O=S(=O)(O)Oc1c(O)cccc1O	–	–	human, fasted baseline, cerebrospinal fluid	–	median concentration	2.1 nM
Teicoplanin	–	HPLC-UV	human patients, serum ultrafiltrate	dose not given	median trough free concentration	1.53 µg/mL
C=CC(=O)Nc1cc(Nc2nccc(-c3cn(C)c4ccccc34)n2)c(OC)cc1N(C)CCN(C)C	–	UHPLC-MS/MS	human, NSCLC patients, plasma	oral, 80 mg daily, steady state, at least 14 d treatment	median trough concentration	205 ng/mL
Cn1c(=O)c2[nH]cnc2n(C)c1=O	–	–	human, fasted baseline, cerebrospinal fluid	–	median concentration	43.9 nM
CC(C)(O)CNc1nc(Nc2ccnc(C(F)(F)F)c2)nc(-c2cccc(C(F)(F)F)n2)n1	–	–	human patients	oral, single and multiple doses, with: induction and consolidation chemotherapy	median Tmax	~4 h

Repeated from above:
Molecule	target or system	assay	test system	conditions	measurement	result
Teicoplanin	–	HPLC-UV	human patients, serum ultrafiltrate	dose not given	median trough free concentration	1.53 µg/mL
